Measurements pooled from the literature.
A part holds a random share of what one study measured.
Chain of UniProt P10721 (whole entry, looked up): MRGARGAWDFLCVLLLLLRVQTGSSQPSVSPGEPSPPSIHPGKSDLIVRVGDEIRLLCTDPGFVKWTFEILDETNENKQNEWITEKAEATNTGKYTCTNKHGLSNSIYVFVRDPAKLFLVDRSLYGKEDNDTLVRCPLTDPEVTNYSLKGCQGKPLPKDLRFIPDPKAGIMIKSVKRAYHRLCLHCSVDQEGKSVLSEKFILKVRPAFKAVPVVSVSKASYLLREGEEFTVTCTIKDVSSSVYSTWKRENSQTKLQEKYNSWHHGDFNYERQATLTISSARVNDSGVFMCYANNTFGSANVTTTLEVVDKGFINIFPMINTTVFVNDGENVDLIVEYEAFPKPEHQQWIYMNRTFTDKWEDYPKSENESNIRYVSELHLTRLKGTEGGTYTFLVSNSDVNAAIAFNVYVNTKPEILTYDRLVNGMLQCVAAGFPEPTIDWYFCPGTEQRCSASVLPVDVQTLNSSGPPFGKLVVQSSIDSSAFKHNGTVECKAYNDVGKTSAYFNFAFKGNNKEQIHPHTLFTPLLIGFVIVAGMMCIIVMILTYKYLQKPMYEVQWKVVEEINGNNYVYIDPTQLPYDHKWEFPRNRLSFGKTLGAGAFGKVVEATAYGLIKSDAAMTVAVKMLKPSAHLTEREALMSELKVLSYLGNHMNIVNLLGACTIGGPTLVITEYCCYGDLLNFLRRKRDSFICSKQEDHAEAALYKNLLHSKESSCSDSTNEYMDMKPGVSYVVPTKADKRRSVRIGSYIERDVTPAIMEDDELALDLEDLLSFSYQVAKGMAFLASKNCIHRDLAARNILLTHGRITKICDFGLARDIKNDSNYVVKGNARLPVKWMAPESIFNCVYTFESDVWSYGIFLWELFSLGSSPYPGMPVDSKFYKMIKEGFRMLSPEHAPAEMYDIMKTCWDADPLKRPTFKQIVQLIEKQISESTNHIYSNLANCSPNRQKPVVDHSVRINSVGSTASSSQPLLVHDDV
Chain of UniProt Q04771 (whole entry, looked up): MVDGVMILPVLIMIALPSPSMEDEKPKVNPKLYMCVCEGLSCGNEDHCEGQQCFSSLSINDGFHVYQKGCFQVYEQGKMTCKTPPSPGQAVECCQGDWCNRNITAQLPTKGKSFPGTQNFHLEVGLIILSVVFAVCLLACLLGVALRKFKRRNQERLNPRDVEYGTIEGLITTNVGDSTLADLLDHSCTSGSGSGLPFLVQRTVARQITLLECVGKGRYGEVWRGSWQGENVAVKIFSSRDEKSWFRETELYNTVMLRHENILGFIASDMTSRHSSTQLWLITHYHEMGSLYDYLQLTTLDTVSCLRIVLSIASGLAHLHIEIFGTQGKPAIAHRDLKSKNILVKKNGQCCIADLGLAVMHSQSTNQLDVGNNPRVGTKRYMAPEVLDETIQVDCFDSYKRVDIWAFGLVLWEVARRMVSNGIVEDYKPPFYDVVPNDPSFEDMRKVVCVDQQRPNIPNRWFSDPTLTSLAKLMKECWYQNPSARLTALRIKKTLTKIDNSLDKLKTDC
Chain of UniProt P45985 (whole entry, looked up): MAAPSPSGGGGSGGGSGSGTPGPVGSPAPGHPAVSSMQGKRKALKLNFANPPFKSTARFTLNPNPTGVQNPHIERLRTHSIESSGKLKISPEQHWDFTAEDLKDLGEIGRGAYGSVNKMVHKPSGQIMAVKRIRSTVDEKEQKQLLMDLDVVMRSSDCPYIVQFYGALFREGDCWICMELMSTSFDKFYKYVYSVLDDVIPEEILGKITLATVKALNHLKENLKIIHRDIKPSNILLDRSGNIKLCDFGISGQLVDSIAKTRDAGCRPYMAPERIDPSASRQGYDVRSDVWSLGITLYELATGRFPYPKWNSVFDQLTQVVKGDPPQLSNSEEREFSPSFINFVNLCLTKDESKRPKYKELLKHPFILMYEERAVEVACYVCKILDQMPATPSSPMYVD
Chain of UniProt Q16539 (whole entry, looked up): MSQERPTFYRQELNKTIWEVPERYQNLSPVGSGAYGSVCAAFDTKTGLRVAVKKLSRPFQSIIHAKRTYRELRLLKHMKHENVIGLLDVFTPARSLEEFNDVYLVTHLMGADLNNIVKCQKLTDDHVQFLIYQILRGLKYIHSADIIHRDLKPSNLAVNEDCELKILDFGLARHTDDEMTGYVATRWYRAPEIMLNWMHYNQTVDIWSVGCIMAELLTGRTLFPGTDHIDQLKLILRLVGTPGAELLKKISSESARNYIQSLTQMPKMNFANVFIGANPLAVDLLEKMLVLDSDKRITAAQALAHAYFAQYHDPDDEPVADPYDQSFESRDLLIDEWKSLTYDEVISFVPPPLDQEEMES
Chain of UniProt Q9C098 (whole entry, looked up): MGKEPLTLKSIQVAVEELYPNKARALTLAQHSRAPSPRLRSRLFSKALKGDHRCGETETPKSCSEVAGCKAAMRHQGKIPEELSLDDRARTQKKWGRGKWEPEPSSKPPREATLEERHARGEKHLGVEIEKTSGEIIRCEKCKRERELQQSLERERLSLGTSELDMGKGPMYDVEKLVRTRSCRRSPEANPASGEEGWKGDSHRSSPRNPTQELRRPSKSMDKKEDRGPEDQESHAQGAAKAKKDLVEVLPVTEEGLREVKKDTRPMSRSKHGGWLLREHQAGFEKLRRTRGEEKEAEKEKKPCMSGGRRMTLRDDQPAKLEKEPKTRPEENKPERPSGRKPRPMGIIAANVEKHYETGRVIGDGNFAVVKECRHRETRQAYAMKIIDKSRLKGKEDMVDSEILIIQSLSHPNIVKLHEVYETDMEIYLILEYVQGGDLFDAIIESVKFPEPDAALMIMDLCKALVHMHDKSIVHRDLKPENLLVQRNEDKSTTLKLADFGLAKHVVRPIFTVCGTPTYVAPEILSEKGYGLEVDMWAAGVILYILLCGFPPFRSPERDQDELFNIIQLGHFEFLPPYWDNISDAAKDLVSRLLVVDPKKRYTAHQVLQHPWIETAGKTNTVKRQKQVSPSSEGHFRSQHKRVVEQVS
Chain of UniProt Q96SB4 (whole entry, looked up): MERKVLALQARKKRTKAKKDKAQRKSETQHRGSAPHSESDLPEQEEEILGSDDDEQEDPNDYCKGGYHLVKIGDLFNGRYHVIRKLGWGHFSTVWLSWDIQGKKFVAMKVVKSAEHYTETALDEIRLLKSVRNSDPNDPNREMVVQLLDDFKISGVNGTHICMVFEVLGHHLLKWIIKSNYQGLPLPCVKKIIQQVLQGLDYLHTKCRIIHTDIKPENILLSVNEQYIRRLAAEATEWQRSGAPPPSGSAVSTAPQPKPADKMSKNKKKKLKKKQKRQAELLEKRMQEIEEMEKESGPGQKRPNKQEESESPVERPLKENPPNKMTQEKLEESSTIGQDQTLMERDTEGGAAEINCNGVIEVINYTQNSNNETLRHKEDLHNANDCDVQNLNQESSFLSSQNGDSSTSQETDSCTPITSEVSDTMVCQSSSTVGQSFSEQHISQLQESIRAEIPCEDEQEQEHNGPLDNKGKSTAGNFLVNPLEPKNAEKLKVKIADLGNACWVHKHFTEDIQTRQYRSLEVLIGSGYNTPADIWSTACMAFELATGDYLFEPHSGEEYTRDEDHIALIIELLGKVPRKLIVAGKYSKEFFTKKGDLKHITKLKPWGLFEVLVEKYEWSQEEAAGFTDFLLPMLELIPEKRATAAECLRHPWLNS
Chain of UniProt Q13188 (whole entry, looked up): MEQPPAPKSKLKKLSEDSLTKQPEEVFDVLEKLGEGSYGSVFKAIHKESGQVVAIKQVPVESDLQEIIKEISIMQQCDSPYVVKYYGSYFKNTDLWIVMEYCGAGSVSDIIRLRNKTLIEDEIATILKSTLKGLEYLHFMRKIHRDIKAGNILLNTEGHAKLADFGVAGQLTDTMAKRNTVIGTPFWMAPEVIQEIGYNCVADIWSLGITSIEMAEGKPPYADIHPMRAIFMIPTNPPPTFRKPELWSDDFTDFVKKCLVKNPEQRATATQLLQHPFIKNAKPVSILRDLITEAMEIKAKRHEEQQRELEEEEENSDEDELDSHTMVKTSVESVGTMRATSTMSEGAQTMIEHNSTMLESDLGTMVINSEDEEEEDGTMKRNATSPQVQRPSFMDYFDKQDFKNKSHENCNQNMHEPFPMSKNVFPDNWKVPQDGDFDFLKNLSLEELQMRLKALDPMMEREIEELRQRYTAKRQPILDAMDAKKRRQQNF
Chain of UniProt P51956 (whole entry, looked up): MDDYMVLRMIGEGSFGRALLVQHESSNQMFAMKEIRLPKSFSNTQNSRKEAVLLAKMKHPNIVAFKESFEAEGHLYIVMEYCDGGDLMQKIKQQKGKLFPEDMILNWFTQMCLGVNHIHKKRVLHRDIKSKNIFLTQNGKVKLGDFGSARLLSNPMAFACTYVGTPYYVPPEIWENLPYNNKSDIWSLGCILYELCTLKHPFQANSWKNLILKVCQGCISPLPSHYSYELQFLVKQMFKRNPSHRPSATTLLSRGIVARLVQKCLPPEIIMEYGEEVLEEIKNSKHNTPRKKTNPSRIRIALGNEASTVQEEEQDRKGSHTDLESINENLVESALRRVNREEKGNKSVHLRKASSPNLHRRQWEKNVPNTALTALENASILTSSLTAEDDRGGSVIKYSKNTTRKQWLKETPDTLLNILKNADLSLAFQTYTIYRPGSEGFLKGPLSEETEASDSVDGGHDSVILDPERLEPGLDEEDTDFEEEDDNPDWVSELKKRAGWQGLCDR

Study 1
Matrix: hydrocarbon/water
Quantity: logD
SMILES = CC(C)C[C@@H]1NC(=O)[C@H](Cc2ccc(O)cc2)N(C)C(=O)[C@H]2CCCN2C(=O)[C@H](CC(C)C)NC(=O)[C@H](C)N(C)C(=O)[C@@H](C)N(C)C1=O; result = -0.794
SMILES = CCC[C@@H]1NC(=O)CN(CC)C(=O)[C@H](CC(C)C)NC(=O)Cn2cc(nn2)CN(C)C(=O)[C@H](CC(C)C)NC(=O)[C@H](C)N(C)C(=O)[C@H](CC2CCCCC2)NC(=O)[C@H](C)N(C)C(=O)[C@H]2CCCN2C1=O; result = 0.101
SMILES = CC(C)CC1NC(=O)CN(CC2CCOCC2)C(=O)C2CCCN2C(=O)C(CC(C)C)NC(=O)C(C)N(C)C(=O)C(CC(C)C)NC(=O)CN(Cc2ccc3c(c2)OCO3)C(=O)C2CCCN2C(=O)C(Cc2ccccc2)NC(=O)C(C)N(C)C1=O (centres unmarked); result = 2.59
SMILES = CC(C)C[C@@H]1NC(=O)[C@H](Cc2ccc(O)cc2)N(C)C(=O)[C@H]2CCCN2C(=O)[C@H](CC(C)C)NC(=O)[C@H](CC(C)C)N(C)C(=O)[C@@H](C)N(C)C1=O; result = 0.91
SMILES = CCC[C@@H]1NC(=O)[C@H](C)N(C)C(=O)[C@H](CC(C)C)NC(=O)CSC[C@@H](C(=O)OCC)N(C)C(=O)[C@H](CC(C)C)NC(=O)[C@H](C)N(C)C(=O)[C@H](CC2CCCCC2)NC(=O)[C@H](CC)N(C)C(=O)[C@H]2CCCN2C1=O; result = 3.04
SMILES = CCN1CC(=O)N[C@@H](CC(C)C)C(=O)N(C)[C@@H](C)C(=O)N[C@@H](CC(C)C)C(=O)N(C)Cc2cn(nn2)CC(=O)N[C@@H](CC(C)C)C(=O)N(C)[C@@H](C)C(=O)N[C@@H](CC(C)C)C(=O)N2CCC[C@@H]2C1=O; result = -0.632
SMILES = CCCCCN1CC(=O)N[C@@H](Cc2ccccc2)C(=O)N2CCC[C@@H]2C(=O)N(C)[C@@H](CC(C)C)C(=O)N[C@@H](C)C(=O)N(CC)CC(=O)N[C@@H](CC(C)C)C(=O)N2CCC[C@@H]2C(=O)N(C)[C@@H](CC(C)C)C(=O)N[C@@H](C)C1=O; result = 2.53
SMILES = CC(C)C[C@@H]1NC(=O)[C@H](C)N(C)C(=O)[C@H]2CCCN2C(=O)[C@H](CC(C)C)NC(=O)[C@H](C)N(C)C(=O)[C@@H](CC(C)C)N(C)C1=O; result = 0.883
SMILES = CCCCCN1CC(=O)NC(CC(C)C)C(=O)N(C)C(C)C(=O)NC(Cc2ccccc2)C(=O)N2CCCC2C(=O)N(CCCOC(C)C)CC(=O)NC(CC(C)C)C(=O)N(C)C(C)C(=O)NC(CC(C)C)C(=O)N2CCCC2C1=O (centres unmarked); result = 3.21
SMILES = CC(C)C[C@@H]1NC(=O)[C@H](Cc2ccccc2)NC(=O)[C@H]2CCCN2C(=O)[C@H](CC(C)C)NC(=O)[C@H](CC(C)C)NC(=O)[C@@H](CC(C)C)NC1=O; result = 1.45

Study 2
SMILES: CC(C)S(=O)(=O)c1ccc2nccc(Nc3ccc4sc(C5CCCC5)nc4c3)c2c1.Cl
Read-out: kinase activity
Action: inhibitor
Concentration: 1 µM
Quantity: remaining activity
target = RPS6KA5 (Homo sapiens, UniProt O75582); result = 96%
target = PAK6 (Homo sapiens, UniProt Q9NQU5); result = 98%
target = DAPK3 (Homo sapiens, UniProt O43293); result = 99%
target = NEK9 (Homo sapiens, UniProt Q8TD19); result = 90%
target = BMX (Homo sapiens, UniProt P51813); result = 80%
target = NEK3 (Homo sapiens, UniProt P51956); result = 105%
target = MAP3K7 (Homo sapiens, UniProt O43318); result = 101%

Study 3
Target: Mitogen-activated protein kinase kinase kinase 8 (MAP3K8, Homo sapiens, UniProt P41279)
Chain of UniProt P41279 (whole entry, looked up): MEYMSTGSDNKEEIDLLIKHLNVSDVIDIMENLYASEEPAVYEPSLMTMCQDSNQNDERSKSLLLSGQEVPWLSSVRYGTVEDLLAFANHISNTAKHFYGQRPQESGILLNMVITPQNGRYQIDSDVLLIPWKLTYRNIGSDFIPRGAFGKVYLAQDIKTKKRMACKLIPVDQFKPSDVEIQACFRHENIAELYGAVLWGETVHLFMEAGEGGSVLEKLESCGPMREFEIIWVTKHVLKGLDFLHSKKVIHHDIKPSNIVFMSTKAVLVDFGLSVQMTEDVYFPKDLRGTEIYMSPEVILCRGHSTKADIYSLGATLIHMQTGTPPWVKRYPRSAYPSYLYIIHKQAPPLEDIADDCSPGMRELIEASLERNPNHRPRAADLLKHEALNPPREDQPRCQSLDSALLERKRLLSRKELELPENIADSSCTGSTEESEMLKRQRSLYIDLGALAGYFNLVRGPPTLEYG
Read-out: enzyme activity
Action: inhibitor
Concentration: 0.5 µM
Relative to: control
Quantity: remaining activity
SMILES = Cc1cc(Nc2nc(-c3ccccc3)nc3ccccc23)n[nH]1; result = 105%
SMILES = Cc1cncc2cccc(S(=O)(=O)N3CCCN(C(=O)CN)C[C@@H]3C)c12; result = 99.9%
SMILES = Nc1nc(Nc2ccc(S(N)(=O)=O)cc2)nn1C(=O)c1c(F)cccc1F; result = 94.4%
SMILES = CCc1[nH]c(-c2ccc(OC)cc2)nc1-c1ccncc1; result = 95%
SMILES = N#CC(=C(N)Sc1ccc(N)cc1)c1ccccc1C(F)(F)F; result = 96.5%
SMILES = NC(=O)c1ccc(N(C(N)=O)c2c(F)cccc2F)nc1-c1ccc(F)cc1F; result = 94.3%
SMILES = CCCC(=O)Oc1ccc2[nH]c(C(=O)c3cc4ccccc4[nH]3)cc2c1; result = 97.6%

Study 4
SMILES: Cn1nc(C(=O)NCc2ccc(C(=O)O)cc2)cc1-c1ccc2[nH]ccc2c1
Technique: competition with immobilised ligand
Concentration: 0.1 µM
Quantity: remaining binding
target = PIK3C2G (Homo sapiens, UniProt O75747); assay = cell-free assay; result = 100%
target = STK3 (Homo sapiens, UniProt Q13188); assay = cell-free assay; result = 91%
target = CSNK2A2 (Homo sapiens, UniProt P19784); assay = cell-free assay; result = 100%
target = MAP2K4 (Homo sapiens, UniProt P45985); assay = cell-free assay; result = 79%
target = MAPK14 (Homo sapiens, UniProt Q16539); assay = cell-free assay; result = 100%
target = SRPK1 (Homo sapiens, UniProt Q96SB4); assay = cell-free assay; result = 33%
target = TEC (Homo sapiens, UniProt P42680); assay = binding; result = 89%
target = KIT (Homo sapiens, UniProt P10721); assay = cell-free assay; result = 97%
target = ROCK1 (Homo sapiens, UniProt Q13464); assay = cell-free assay; result = 93%
target = ACVR1 (Homo sapiens, UniProt Q04771); assay = cell-free assay; result = 99%
target = DCLK3 (Homo sapiens, UniProt Q9C098); assay = cell-free assay; result = 96%
target = PIP5K1C (Homo sapiens, UniProt O60331); assay = cell-free assay; result = 91%
target = EGFR (Homo sapiens, UniProt P00533, del747-752/P753S); assay = cell-free assay; result = 100%
target = NLK (Homo sapiens, UniProt Q9UBE8); assay = cell-free assay; result = 100%

Repeated from above (study 2):
target = DAPK3 (Homo sapiens, UniProt O43293); result = 99%
target = NEK9 (Homo sapiens, UniProt Q8TD19); result = 90%
target = BMX (Homo sapiens, UniProt P51813); result = 80%
target = NEK3 (Homo sapiens, UniProt P51956); result = 105%
target = MAP3K7 (Homo sapiens, UniProt O43318); result = 101%
